Assay results from different studies.
Each numbered part is a random draw from the data of one study; scales do not carry over between parts.

Study 1
Target: Interferon regulatory factor 5, full length, phosphomimetic (IRF5, Homo sapiens, UniProt Q13568-2, residues 1-514, K96S/S451D/S453D/S456D/S462D)
Technique: protein-binding microarray
Form: double-stranded DNA, one strand shown
Sample: in vitro
Concentration: 250 nM
Notes: 60-bp whole probe
Together with: salmon DNA 0.4 mg/ml
Baseline: random background probes
Direction: higher = stronger binding
Constant ends, left off below: GCCTAGCAC … GTCTTGATTCGCTTGACGCTGCTG
Oligonucleotide	log fluorescence
TCAGCTTCCTCTTTCACACTGTGCTAG	1.77 z-score
CTGAGGCTGTGTTTTCACTTTGTGCTA	1.02 z-score
TTAGCTATCGGTTTCGGTTAGTGCTAG	11.3 z-score
GACGGTTTAGACTATCGGGACGTGCTA	1.38 z-score
GACGGTCTCGGTCTCGGGAAGTGCTAG	0.188 z-score
TGGGAAATTCCTCTGAATAGGTGCTAG	-0.256 z-score
GACGGTCTCGGTTTGGGGACGTGCTAG	0.342 z-score
GACGGTCTCCTAATGCTGACGTGCTAG	-0.228 z-score
GACGGATTCGACTTTCGGGACGTGCTA	5.28 z-score
TTACAACTGGGGTTTCGATTAGTGCTA	6.01 z-score
TCAAGTTTGACATCTTCAACTGTGCTA	-0.105 z-score
TCAGGTCTCGCTTCATCACTGTGCTAG	0.137 z-score
GGACCGCGACCTGCCAAGTCGTGCTAG	-0.588 z-score
AACGATATCGGGTATCGAGACGTGCTA	3.09 z-score
ATAACCTTGAACTTCGGCCTGTGCTAG	0.091 z-score
TTGGGACTGCTACTGCTTTAGTGCTAG	-0.762 z-score
GACGGACTGGACTATCGAGACGTGCTA	0.82 z-score
GGCGAACTGAGTATCGAGACGTGCTAG	1.4 z-score
GACGGTTTCCTTTCCCTGAAGTGCTAG	1.44 z-score
GACGATCTCAGTAACGAGACGTGCTAG	-0.0145 z-score
AACGATTTCGGGTTTCGAGACGTGCTA	5.14 z-score
TTAGATCTCAATATCGATTAGTGCTAG	3.86 z-score
CCAATTCTCTTTTCACTTTCGTGCTAG	4.54 z-score
TCACACATATAATTTTGTACTGTGCTA	0.792 z-score
TCATGTCTCCCCCATCTTACTGTGCTA	0.0613 z-score

Study 2
Target: Centromere-binding protein 1, full length, N-terminal tag (CBF1, Saccharomyces cerevisiae, UniProt P17106, residues 1-351)
UniProt P17106, sequence (whole entry, looked up): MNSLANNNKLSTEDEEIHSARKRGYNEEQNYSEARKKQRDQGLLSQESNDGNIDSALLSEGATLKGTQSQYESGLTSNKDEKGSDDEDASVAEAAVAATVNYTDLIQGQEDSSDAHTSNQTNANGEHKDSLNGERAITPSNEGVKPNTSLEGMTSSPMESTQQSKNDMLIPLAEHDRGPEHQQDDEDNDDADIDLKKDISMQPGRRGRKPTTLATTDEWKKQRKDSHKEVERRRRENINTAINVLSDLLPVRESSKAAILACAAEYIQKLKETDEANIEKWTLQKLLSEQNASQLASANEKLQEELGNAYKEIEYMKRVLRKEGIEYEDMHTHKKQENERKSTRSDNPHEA
Technique: protein-binding microarray
Form: double-stranded DNA, one strand shown
Sample: in vitro
Concentration: 0.8 µM
Notes: whole 60-bp probe, no competitor
Direction: higher = stronger binding
Constant ends, left off below: … GTCTTGATTCGCTTGACGCTGCTG
Oligonucleotide	fluorescence intensity
CTACTCACACCGCCGCACGCGAGTGAGGTTGAATTC	485 a.u.
GAACTAGAACTTCAATTCACCACGTTCAGGGTATAG	554 a.u.
GAAAATATCTTTTGCAACATCAGAAGTGTCCGTTAG	529 a.u.
GAATATATGAATCCACGCACCTGATCTGGCTCTTAG	1170 a.u.
CTACCTTTACACCTTCATCAGATTCGCCATCAATTC	546 a.u.
GAAGAGGCGGTATGTGACGTGAATATATGCGATTAG	627 a.u.
GAATTAGATATTACAGACGTGAGGTATCTCTTCTAG	500 a.u.
GAAACAGGGGAGAGACACGCAGATAAATACACATAG	517 a.u.
GAAATGCAATTATGCAACACGCACACATTCACATAG	528 a.u.
GAATATTAACAATGACACGTTATTTTATATGTATAG	668 a.u.
CTAAGGATATTCAGTTGCGTGAAATCATGACGATTC	526 a.u.
CTACTGCTCAACTAGAAGGTGGTGTTAATAACTTTC	520 a.u.
CTATTCTCTGAAAAAAACGTGTAGTTTCATGACTTC	634 a.u.
CTACCACTATTACGTGGTGCTTCCAGTAGCGCTTTC	496 a.u.
CCTAACTACTATAAATGTGTGACATAGCTTCGTACA	558 a.u.
CTACATATGATGTCCCACATGACGCAAGTAACTTTC	860 a.u.
CTAAATAGGCGCAATCACACTTAAACGTATACGTTC	495 a.u.
CTAAAAACAAGACATCAGGCCCGCACGTTTCGCTTC	599 a.u.
CTAAACGGCTATTATCACGCTATGGAAGAACCCTTC	583 a.u.
GAAATTTGATAAAATCACCTGGCATTACGGTGATAG	723 a.u.
GAACGACTCCCAATACACGTTTTCTATTTTTAATAG	572 a.u.
GAATGAATTTTCATTCACGTGATCTACATTCCCTAG	23300 a.u.
CTATTTATAAAATATGACGTCGTAAAAGAAGAATTC	569 a.u.
GAAGCTGATCCGGGTGACACACTACTAATCATTTAG	526 a.u.

Study 3
Target: RNA binding protein fox-1 homolog 2, RRM domain, GST-SBP tag (RBFOX2, Homo sapiens, UniProt O43251-10, residues 100-194)
Technique: RNA Bind-n-Seq
Form: RNA
Sample: in vitro
Concentration: 365 nM
Notes: natural RNA segment, single round, ends assumed
Baseline: no-protein control
Direction: higher = stronger binding
Constant ends, left off below: GGGAGUUCUACAGUCCGACGAUC … UGGAAUUCUCGGGUGCCAA
Construct (chain): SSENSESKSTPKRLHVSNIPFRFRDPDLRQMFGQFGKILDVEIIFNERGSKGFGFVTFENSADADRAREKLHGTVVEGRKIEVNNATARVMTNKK
Oligonucleotide	RBNS enrichment (R)
UGGGAAUGUCCCCUGCCCCAACCAUCGGGUGGAGCUCCUGCUGGGCUAUGGGGAAGGGAGGUUGUGCGGAUCUUGACUCUAGGGCAGAACAGAUCUAACCAUGCAUUGCU	1.91
UCCUGCCGUCCUCCCACUGGCAUCCUGGCAAGGGGGCGUUGCUUUUCCUGGGCGGCCUUUUAUGUCUUGGAGACACCUGAUGUAAAGUUUCUGUAAAUCUAUUUCAUAUC	0.533
UGGGGCACCCGGAUCCCAGCAGCCUGGUUGCCUGCCUGUAGGAUGUCUUACAGGAGUUUGCAGAGAAACCUUCCUUGGAGGGAAAGAAAUAUCAGGGAUUUUUGUUGAAU	0.568
CCUUCCCACAGCAUUCCUCCAUCUUAGAUAGAUGGUACUCUCCAAAGGCCCUACCAGAGGGAACACGGCCUACUGAGCGGACAGAAUGAUGCCAAAAUAUUGCUUAUGUC	0.712
CACACCCCUAUUUCAUGUCUGAAAUAACCCUGUUUCAUACCAGUUGCAAAGCUUGUGGGGAGCGGUCCCACAAAGCACUUUCUUAAACCUUGAGAAUCUCCAAGAGAAAA	0.378
GUGUAGUGAAUUAUAACAACCUGAAGAUUGCUUUCUGAAACUGUUUUUAAGUUAAGGGAAAAAGUAUAUUUUUGUUAAAACUUUCAUGAAAAAAUAAAAUAUAUCCUUGU	0.75
GAAUAAACUGCCCACUCAGAAGAUAUGUAAUUUGUAUCGUUGUAUAGUUUUAUUGAUUACACUGAUUUAUUCUACCCUAUUUUAUAAUGCAGGACUUUUGUAAUGUUGUC	0.611
CAACUUCUGCGGAAGGACACAGUAGUAACUCGCCUUCCUUGUGCAGAGCUAGGGCCCUACCUGAGCAAGUCGGCUGUGGCCCGGGAGGCAGCGUGACUCCUGCUGUCCUC	0.502
CCCUAAUUUUUUUUGUUUUAAUGUUUAAUUUUCAUUCUAUUUUAAAUCAGACAUUAAAAAUAUUCAAAAACAAACAAGAGUCAGGCUUCAACUUGAAGUAUAGAUAUGAC	0.556
CUGGGUGACAGAGCGAGACCCUGUCUUAAAAAAAAAAACAAAACAAAACCAGCAUCUGUUACUGGAACAGAGACCUCAGCCCAAGCUCAGGACAAGGAGGCCUCCCUGGG	0.625
AGCCGGUUCUUACCUCUUAGGUGAAGGAGAUGACAUGUUUUUAGAAUUGCUGUGCAAGGCUCACCCUCUCUCUGUCAACACUGGAAUAAACUUUGCCUUUUCUGAGUAGU	0.338
GGACCAAUGCAUCUCUUUAAAGGCAAAUAUUAUCCAGCAAGCAGUCUACCCUGUCCUUUGCAAUUGCUCUUCUCCACGUCUUUCCUGCUACAAGUGUUUUAGAUGUUACU	0.588

Study 4
Target: Histone acetyltransferase KAT6A, winged helix 1, GST fusion (KAT6A, Homo sapiens, UniProt Q92794, residues 1-85)
Technique: protein binding microarray
Form: double-stranded DNA, one strand shown
Sample: in vitro
Concentration: not given
Notes: 8-mer, flanks averaged, mean of 2 arrays, mostly near background
Baseline: not given
Direction: higher = stronger binding
Residues (chain): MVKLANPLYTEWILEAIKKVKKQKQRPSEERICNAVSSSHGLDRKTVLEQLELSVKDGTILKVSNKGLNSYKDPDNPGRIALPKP
Oligonucleotide	E-score
ACACTCCT	-0.0805
AACGAGAA	-0.223
AAGAATGG	-0.169
CGTCATAA	-0.065
GGAAAAGA	-0.108
ACGGGGAC	0.25
CGTGTTCA	0.0247
ACGACGAA	-0.137
AACATGGA	-0.161
CACAATAA	-0.263
AGTTTAAG	-0.214
CTGAAACC	0.0815
TATCTGAA	-0.183
AGTCCTGG	-0.217
GCCCCTAC	-0.0183
TACTCGCA	0.123
TAGAAGAA	-0.191
ATCTAACG	0.0415
CTCTGCAC	-0.0573
GGCGTCCA	0.0942
GCTTATCA	-0.126
CTTGTGCA	-0.0418
AGGCGCGG	0.375
AATCTGTA	-0.0158
TGCATCAA	-0.146

A few entries again (study 4):
Oligonucleotide	E-score
CTGAAACC	0.0815
TATCTGAA	-0.183
AGTCCTGG	-0.217
GCCCCTAC	-0.0183
TACTCGCA	0.123
